Published values from different studies.
A part holds a random share of what one study measured.

Sample 1 — method: RNA Bind-n-Seq; molecule type: RNA; medium: in vitro; tested at: not given; baseline: input RNA pool; direction: higher = stronger binding
Target: RING finger protein unkempt homolog, zinc fingers 1-6, GST-SBP tag (UNK, Homo sapiens, UniProt Q9C0B0, residues 30-357)
Chain of UniProt Q9C0B0 (30-357, looked up): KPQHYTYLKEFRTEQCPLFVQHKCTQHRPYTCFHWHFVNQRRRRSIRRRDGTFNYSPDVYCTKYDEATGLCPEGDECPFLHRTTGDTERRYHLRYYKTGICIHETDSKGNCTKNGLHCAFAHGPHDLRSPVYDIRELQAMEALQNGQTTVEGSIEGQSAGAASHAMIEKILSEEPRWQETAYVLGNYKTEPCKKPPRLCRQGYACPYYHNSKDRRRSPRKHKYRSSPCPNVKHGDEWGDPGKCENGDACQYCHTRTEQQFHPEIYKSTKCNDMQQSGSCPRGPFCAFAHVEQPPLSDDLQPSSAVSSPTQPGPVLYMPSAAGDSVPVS
Notes: RNA with constant flanks, human and mouse sites, ends assumed
Shared flanks, not repeated: GGGAGUUCUACAGUCCGACGAUC … CAACAGAGGAUUGAGCAUCA
Strand | bound/input enrichment
GCUAGUCAGUCUGGGGCAACAUUCUUUAGCAUCUCUGCUUCAUCCUUAACUUCUAAAUGGGUAGGUGAGGGGGAGAAAAUGGUCCGUGCAUUGUUUGCUGUUGCAAGGUGUCAGCAACCA | 0.303 ratio
UAAAGAACUCUUCAGAAUUCCUGGUGUUUCAUCAUAUAUACGACUAAGAUAUCAACUCUUCUAGCUUGCUGUUUCUGGACCAAAAAAAAUGACGUCUAUUAUCAAAUUAACUACCCUUUC | 1.59 ratio
AGCACUAAAACAUUAACUAAACAACAGUCAACCACAUUUCCAAAGAACUCUGCUUUAAAACAAGAUGUGAAGCGAACAUUUGGAUCAACCUCACAAUCAAGUAGUUUUUCAAAAAUUCAU | 2.46 ratio
UUUGGCAUCACCCAGCGACCAGCGUACAUUAACAUGGUACCUAGCCUGUCGCAGUUCACUAGCAUUUACACACCUUUGGCCAACAUUUCUUCUGAGUAUCCAAUGCAAAGAUCCAUGCCA | 1.76 ratio
CCUCCUACUACAACUGCUGAAAUUGCAACUGCCUCAGCUUCUGCCUCCACUACUACAACUGUUACUGCUGUCACUGCUGAAGUGGAUCUCUUUGGAGAUGCCUUUGCAGCUUCUCCUGGG | 0.221 ratio

Sample 2 — method: universal PBM; molecule type: double-stranded DNA, one strand shown; medium: in vitro; tested at: not given; direction: higher = stronger binding
Target: Sal-like protein 4, full length isoform B (SALL4, Homo sapiens, UniProt Q9UJQ4-2, residues 1-616)
Notes: 8-mer, flanks averaged, mean of replicates
Target sequence (chain): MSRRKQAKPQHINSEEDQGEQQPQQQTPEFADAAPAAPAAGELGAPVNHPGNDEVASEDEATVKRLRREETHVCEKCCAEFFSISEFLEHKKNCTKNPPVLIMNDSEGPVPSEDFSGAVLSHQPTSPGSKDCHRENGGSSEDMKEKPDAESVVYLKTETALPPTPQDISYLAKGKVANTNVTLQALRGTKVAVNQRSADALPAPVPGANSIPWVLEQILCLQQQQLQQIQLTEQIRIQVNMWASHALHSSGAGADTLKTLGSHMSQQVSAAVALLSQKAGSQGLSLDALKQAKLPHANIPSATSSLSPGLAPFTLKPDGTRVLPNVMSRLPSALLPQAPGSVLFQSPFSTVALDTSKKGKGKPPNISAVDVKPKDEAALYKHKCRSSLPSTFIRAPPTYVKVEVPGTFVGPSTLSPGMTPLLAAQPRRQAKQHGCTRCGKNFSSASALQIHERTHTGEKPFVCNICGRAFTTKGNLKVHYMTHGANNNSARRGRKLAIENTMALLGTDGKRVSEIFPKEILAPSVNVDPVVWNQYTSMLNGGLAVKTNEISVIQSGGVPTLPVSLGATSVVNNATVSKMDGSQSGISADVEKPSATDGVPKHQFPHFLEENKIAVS
Strand | E-score
AATGTCCG | -0.0405
CGTGCTAG | -0.116
GAAAGTTC | -0.0647
GGGCTTTA | -0.216
AAGCCGTG | -0.104
TCCTAAGA | 0.0114
AGGCGTCA | -0.179
AACTCAGT | -0.12
CGGAAAGC | -0.175
CATTGGGG | -0.0884

Sample 3 — method: RNA Bind-n-Seq; molecule type: RNA; medium: in vitro; tested at: 365 nM; baseline: no-protein control; direction: higher = stronger binding
Target: RNA binding protein fox-1 homolog 2, RRM domain, GST-SBP tag (RBFOX2, Homo sapiens, UniProt O43251-10, residues 100-194)
Notes: natural RNA segment, single round, ends assumed
Shared flanks, not repeated: GGGAGUUCUACAGUCCGACGAUC … UGGAAUUCUCGGGUGCCAA
Construct (chain): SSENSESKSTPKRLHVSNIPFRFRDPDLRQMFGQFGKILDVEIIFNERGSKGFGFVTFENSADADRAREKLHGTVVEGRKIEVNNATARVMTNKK
Strand | RBNS enrichment (R)
CUUUAGACACGAAAUGCGUGCUAGGACUGGCAGCAGUUCCUGAGCCUGGCUGCCAGGCAACAGGAAGAAAGGCGUAUGGGAAAGUAGGAUGGAGACUGGAACCAUCCUAC | 0.73
AUCCCCGGCCCCGGCUGUGACUGCCCUGUUUCACCCCUGCUGUGUCCCAUCCCCCGUCUGUCCACUAACUGUACCGCACCGGCCAUUAAAAGAUGAAGGCAGACCGCUGC | 0.626
AUAGCAAUAAAAUGUGAUUCUUGGGGUCUGCCCAGAGCUGCCCAUGGCUUUAUUUAUGAGUGUGGCUUUGAGGAGUUGGGAAGAGGUAACCCACUUCUCUCCCAUCUUCU | 0.322
ACUCGGACAACUUCCCAAGGCCGCCUCCUGCUAGCAAGAACAGAGUCCACCCUCCUCUGGAUAUUGGGGAGGGACGGAAGUGACAGGGUGUGGUGGUGGAGUGGGGAGCU | 0.8
GCCUUUUGCUAAGCGAUCUCUAUGCCUGGGAUGCCCUUUAUUCCAGGAGGCAUCAAGCCUCUAAAGAAUGUCUCACCUCCUCUGCCCAAAAAUGAUGCCUUUCUGUAGGC | 0.325
GAUGUGUCUGUCUUUGUCACGGUGGACAGAGGGUGACAUCAUAGGAGCAGCUCGCUGGCCAGAAGGGGAUGGGGGCAUCCCUGUGCCUCACUCAGCUCCUGCUGCUCUUA | 0.51
ACCAAGAGACAGCAGACAGCCUGCCUCCUGGGGCGUGCCGGCACCUGCUUCAGCUACUGCCUCCUGUAUGCAUGAGCCGGAUGCUGGGCAGGAUCCCUGCCUACGCCCGG | 3.64
UCACAUGAUGUCGAUGUCCCAAGGUGAAGGCAACGUCAGGAGUGCCGCAUGUAGGGAGAUGGAGGGAGUAGGCAAUGGGGCCAAGGAAAACUGAGUUCGAUGAAAGAAGA | 1.62

Other studies, line by line
Molecule | target | assay | test system | setting | scale | endpoint | result
PhoQ, residues 284 288 289 292 302 303 SIHMAM | PhoP, residues 12 14 15 18 19 LHHSG (Escherichia coli, UniProt P23836) | Sort-seq, item: YFP reporter | E. coli | PhoQ-PhoP variant library, added: 10 µM Mg2+ | baseline: high Mg2+ state, higher = stronger signaling | fold induction | 0.728

Excerpt of the above (sample 2):
Strand | E-score
AATGTCCG | -0.0405
CGTGCTAG | -0.116
